Experimental data pooled from the literature.
Numbers after ± are the reported error.
Cell line: 4T1

Clc1ccc2ccc3[n+](c2c1)[Ir-3]12([c]4ccccc4-3)([c]3ccccc3-c3ccc4ccc(Cl)cc4[n+]31)[n+]1ccccc1-c1cccc[n+]12.F[P-](F)(F)(F)(F)F — IC50 (cell growth, MTT; 72 h): 0.4 ± 0.03 µM
Fc1ccc(-c2noc(-c3cccs3)c2C(F)(F)F)cc1 — IC50 (cell growth or viability, MTT; 48 h): 17.3 µM
CC(=O)O[C@H]1C[C@@H]2[C@@]3(C)C=CC(=O)C(C)(C)[C@H]3C[C@@H](O)[C@@]2(C)C2=CC[C@@H](c3ccoc3)[C@@]21C — IC50 (cell growth or viability, MTT; 48 h): 105 µM
CC(=O)Nc1ccc(OC(=O)CCC(=O)[O][Pt-2]23([O]C(=O)CCC(=O)Oc4ccc(NC(C)=O)cc4)([NH2+][C@@H]4CCCC[C@H]4[NH2+]2)[O]C(=O)C(=O)[O]3)cc1 — protein level (Western blot, refers to: NLRP3; 2 µM, 24 h; relative to: untreated control, upregulation): ~1.7 fold
COc1cccc(Cc2c[nH]c3ncccc23)c1 — inhibition (cell growth or viability, MTT; 10 µM, 72 h): 11%
CC(=O)Oc1c2c(c3ccc4c(c3c1OC(C)=O)C=CC(=O)C4(C)C)OC[C@@H]2C — Fe2+ level (concentration not given, 24 h): increased
FC(F)(F)Sc1ccc(-c2noc(-c3cccs3)c2C(F)(F)F)cc1 — IC50 (cell growth or viability, MTT; 48 h): 32.5 µM
FC(F)(F)c1ccc(Cc2c[nH]c3ncc(C(F)(F)F)cc23)cc1 — inhibition (cell growth or viability, MTT; 10 µM, 72 h): 17%
Nc1ccccc1NC(=O)c1cnccn1 — IC50 (cell growth or viability, MTT; 48 h): 60 µM
COc1cc(Cc2c[nH]c3ncc(C(F)(F)F)cc23)cc(OC)c1 — ROS level (DCFH-DA flow cytometry; concentration not given, 24 h): increased
Cn1cncn1.[Ru+2].c1cc(-c2ccc3ccccc3n2)nc(-c2ccc3ccccc3n2)c1.c1ccc2cc3nc4c5cccnc5c5ncccc5c4nc3cc2c1 — EC50 (cell viability, MTT; 4 h, dark): 30 ± 5 µM
CCNS(=O)(=O)c1ccc(COc2ccc3nc4ccc(=O)cc-4oc3c2)cc1 — SNAIL1 protein stabilization (DDR2 signalling, Western blot; 1 µM, 6 h, added: collagen I 2 mg/mL): inhibited
FC(F)(F)c1cnc2[nH]cc(Cc3ccc(Cl)c(C(F)(F)F)c3)c2c1 — inhibition (cell growth or viability, MTT; 10 µM, 72 h): 13%
